Published values of several laboratories.
Each line is one published result; not all experiments were run side by side. Values joined by “and” are separate records of one study, mostly repeats; a detail may differ. ± gives the spread as reported.
SLC6A3: Sodium-dependent dopamine transporter (SLC6A3, Homo sapiens, UniProt Q01959)
kasA: 3-oxoacyl-[acyl-carrier-protein] synthase 1 (kasA, Mycobacterium tuberculosis, UniProt P9WQD9)
Oprm1: Mu-type opioid receptor (Oprm1, Rattus norvegicus, UniProt P33535)
cydA with subunit CydB: cydA, with subunit CydB (Mycobacterium tuberculosis, UniProt L7N662)
4'-phosphopantetheinyl transferase PptT: 4'-phosphopantetheinyl transferase PptT (Mycobacterium tuberculosis, UniProt O33336)
Slc6a4: Sodium-dependent serotonin transporter (Slc6a4, Rattus norvegicus, UniProt P31652)
CHRM1: Muscarinic acetylcholine receptor M1 (CHRM1, Homo sapiens, UniProt P11229)

CCCC(C(=O)c1ccc2c(c1)OCO2)N1CCCC1 (stereo not shown)
koff (SLC6A3; transporter current, inhibitor, electrophysiology; human DAT-expressing cells; 100 µM, current recovery, added: dopamine 30 µM): 0.65 s⁻¹

COc1cc(N)c(Cl)cc1C(=O)NC1CCN(CCCOc2ccc(F)cc2)CC1OC (stereo not shown)
ΔTm (kasA; thermal stabilization, nanoDSF; 100 µM): -0.2 °C

COC(=O)/C=C/C(=O)N[C@@H]1CC[C@@]2(O)[C@H]3Cc4ccc(O)c5c4[C@@]2(CCN3CC2CC2)[C@H]1O5
irreversible specific binding (Oprm1; covalent, radioligand binding after TCA denaturation; N2a cell membranes; 1.5 nM, 75 min, added: 200 mM NaCl): 63.6 ± 2.97%

CCc1nc2ccc(Cl)cn2c1C(=O)NC1CCC(=O)NC1C1CCCO1 (stereo not shown)
ΔTm (kasA; thermal stabilization, nanoDSF; 100 µM): -0.09 °C

Oc1ccc2c3c1O[C@H]1[C@@H](O)CC[C@@]4(O)[C@@H](C2)N(CC2CCC2)CC[C@]314
log2 fold change (GPR35 (Homo sapiens, UniProt Q9HC97); β-arrestin recruitment, TANGO luminescence; concentration not given; baseline: basal luminescence): 0.124

CN1CC[C@]2(C)c3cc(OC(=O)Nc4ccccc4)ccc3N(C)[C@H]12
inhibition (human nicotinic α4β2 receptor; radioligand binding; 10 µM, added: [3H]epibatidine): 0.5%

COc1c(O)c(C)c(CC=C(C)C)c(O)c1OC
specific activity (cydA with subunit CydB; biochemical): 5.3 ± 0.5 µmol/min/mg

Nc1nc2c(ncn2[C@@H]2O[C@H](COP(=O)(O)OP(=O)(O)O)[C@@H](O)[C@H]2O)c(=O)[nH]1
binding stoichiometry (uncharacterized protein (Vibrio cholerae, UniProt A0A0X1KYD0); nucleotide binding, isothermal titration calorimetry; concentration not given, no Mg2+): ~1

COC(=O)[C@H]1[C@@H](OC(=O)c2ccccc2)C[C@@H]2CC[C@H]1N2C
mean closed time (Sodium channel protein type 4 alpha, BTX-activated (Oryctolagus cuniculus, UniProt G1SLL9); concentration not given): 515 ms and 492 ms

CCCCCCCCCCc1c(C)c(O)c(OC)c(OC)c1O
Km (cydA with subunit CydB; enzyme activity, biochemical): 21.5 µM and 19.3 µM

CCn1ncc2ccc(NS(=O)(=O)c3c(F)c(F)cc(F)c3F)cc21
ΔTm (kasA; thermal stabilization, nanoDSF; 100 µM): 0.18 °C

CN[C@@H](C)[C@H](O)c1ccccc1
enzyme activity (4'-phosphopantetheinyl transferase PptT; inhibitor; concentration not given): inactive

CC(NC(C)(C)C)C(=O)c1ccccc1 (stereo not shown)
activity (Slc6a4; binding; rat; dose not given): inactive

CCc1nc2ccc(Cl)cn2c1C(=O)Nc1cc(CO)c(C)cc1C
ΔTm (kasA; thermal stabilization, nanoDSF; 100 µM): -0.18 °C

NCCc1ccccc1
reporter activity (Trace amine-associated receptor 1, with DAT (Macaca mulatta, UniProt Q8HZ64); CRE-luciferase reporter, agonist; TAAR1-DAT co-expressing cells; 10 µM, 18 h; baseline: vehicle): 1750%

C/C1=C2/[N-]C([C@H](CC(N)=O)[C@@]2(C)CCC(=O)NC[C@@H](C)OP(=O)([O-])O[C@H]2[C@@H](O)[C@@H](n3cnc4cc(C)c(C)cc43)O[C@@H]2CO)[C@]2(C)N=C(/C(C)=C3N=C(/C=C4N=C1[C@@H](CCC(N)=O)C\4(C)C)[C@@H](CCC(N)=O)[C@]\3(C)CC(N)=O)[C@@H](CCC(N)=O)[C@]2(C)CC(N)=O.[CH2-][C@H]1O[C@@H](n2cnc3c(N)ncnc32)[C@@H](O)[C@@H]1O.[Co+3]
specific activity (Probable methylmalonyl-CoA mutase large subunit (mutB, Mycobacterium tuberculosis, UniProt P9WJK5); cofactor): 35.4 ± 0.5 µmol/min/mg

Oc1cccc([C@]23CCC[C@H]([C@H]2O)N(CC=Cc2ccccc2)CC3)c1
efficacy (Oprm1; agonist; C6 cells expressing mu opioid receptor; 10 µM; baseline: DAMGO): 20 ± 6%

CCc1nc2ccc(Cl)cn2c1C(=O)NCC1(OC)CCOCC1
ΔTm (kasA; thermal stabilization, nanoDSF; 100 µM): -0.18 °C

COc1c(O)c(C)c(C/C=C(\C)CCC=C(C)C)c(O)c1OC
Km (cydA with subunit CydB; enzyme activity, biochemical): 65.2 ± 15.3 µM

CCn1ncc2ccc(NS(=O)(=O)c3ccc(NC(=O)C(F)(F)F)cc3)cc21
ΔTm (kasA; thermal stabilization, nanoDSF; 100 µM): -0.2 °C

NCCc1ccc(Oc2ccc(O)cc2)c(I)c1
reporter activity (Trace amine-associated receptor 1 (Macaca mulatta, UniProt Q8HZ64); CRE-luciferase reporter, agonist; TAAR1-expressing cells; 10 µM, 18 h; baseline: vehicle): 680%

CCCCCCCC[C@H]1O[C@H]1C/C=C/C=C/[C@H](O)CC(=O)NC1=C[C@](C)(CC)OC1=O
ΔH (Na(+)-translocating NADH-quinone reductase subunit B, whole Na+-NQR complex (nqrB, Vibrio cholerae serotype O1, UniProt Q9KPS2); isothermal titration calorimetry; 20 °C, 50 µM): -25 ± 0.98 kcal/mol

CCCC(C(=O)c1ccc2c(c1)OCO2)N1CCCC1 (stereo not shown)
remaining current (SLC6A3; endogenous leak current, inhibitor, two-electrode voltage clamp; Xenopus oocytes expressing hDAT; 0.01 to 30 µM, -60 mV; baseline: dopamine pre-pulse peak current): 32.9 ± 1.9%

O=c1c2cc(Cl)ccc2[nH]c(=S)n1Cc1cccnc1
activity loss (4'-phosphopantetheinyl transferase PptT; enzyme activity, inhibitor; 100 µM, 2 h, room temperature, before dialysis, 10 µM enzyme): 76%

CCN(CC)C12C3CCC4C3C3C(CCC31)C42
inhibition (Matrix protein 2 (Influenza A virus, UniProt P0DOF5); 100 µM, pH 5.5, cell-based): 0%

Clc1cccc(N2CCNCC2)c1Cl
Emax (CHRM1; ERK1/2 phosphorylation, agonist; CHO cells): < 10%

CCC[C@H](C(=O)c1ccc(C)cc1)N1CCCC1
koff (SLC6A3; DAT-mediated current recovery, electrophysiology; human DAT-expressing cells; 100 µM, added: 30 µM dopamine): 1.73 s⁻¹

CCCNC(=O)NS(=O)(=O)c1ccc(Cl)cc1
ΔTm (kasA; thermal stabilization, nanoDSF; 100 µM): -0.34 °C

CC(NC(C)(C)C)C(=O)c1cccc(Cl)c1 (stereo not shown)
inhibition (Voltage-dependent P/Q-type calcium channel subunit alpha-1A (Homo sapiens, UniProt O00555); ion current, antagonist; HEK293; 10 µM): 24%

C=CCN1CC[C@]23c4c5ccc(O)c4O[C@H]2C(=O)CC[C@]3(O)[C@H]1C5
inhibition (Glutamate receptor ionotropic, NMDA 1, glycine site (GRIN1, Homo sapiens, UniProt Q05586); concentration not given): 5.7%

CNC1(c2ccccc2Cl)CCCCC1=O (racemic)
inhibition (SLC6A3; radioligand binding, antagonist, radioligand displacement; 30 µM): 22%

Oc1ccc2c3c1O[C@H]1c4oc5ccccc5c4C[C@@]4(O)[C@@H](C2)N(CC2CC2)CC[C@]314
Hill coefficient (Trpm7 (Mus musculus, UniProt Q923J1, F924W); Ca2+ influx, activator, aequorin; HEK-293T): 1.07 ± 0.08

CCC(C(=O)c1ccc2c(c1)OCO2)N(C)C (stereo not shown)
EC50 (Slc6a4; serotonin release; rat brain synaptosomes; added: [3H]5-HT 5 nM): inactive

CCn1ncc2ccc(NS(=O)(=O)c3ccc(C)c(C(=O)O)c3)cc21
ΔTm (kasA; thermal stabilization, nanoDSF; 100 µM): -0.32 °C

Clc1cc(Cl)cc(N2CCNCC2)c1
Emax (CHRM1; ERK1/2 phosphorylation, agonist; CHO cells): < 10%

Cc1[nH]c2ccccc2c(=O)c1-c1ccc(Oc2ccc(OC(F)(F)F)cc2)cc1
specific activity (cydA with subunit CydB; inhibitor; 110 nM): 4.1 ± 0.2 µmol/min/mg

c1ccc2cc([C@]34CNC[C@H]3C4)ccc2c1
dopamine uptake (SLC6A3 (Homo sapiens, UniProt Q01959, F326A); inhibitor, [3H]dopamine uptake; 100 pM, F326A mutant; baseline: no inhibitor): 78.4% and 106% and 103%

For quick reference, copied from above:
CCCNC(=O)NS(=O)(=O)c1ccc(Cl)cc1
ΔTm (kasA; thermal stabilization, nanoDSF; 100 µM): -0.34 °C

c1ccc2cc([C@]34CNC[C@H]3C4)ccc2c1
dopamine uptake (SLC6A3 (Homo sapiens, UniProt Q01959, F326A); inhibitor, [3H]dopamine uptake; 100 pM, F326A mutant; baseline: no inhibitor): 78.4% and 106% and 103%

COc1cc(N)c(Cl)cc1C(=O)NC1CCN(CCCOc2ccc(F)cc2)CC1OC (stereo not shown)
ΔTm (kasA; thermal stabilization, nanoDSF; 100 µM): -0.2 °C
